Experimental data pooled from the literature.
Each numbered part is a random draw from the data of one study; scales do not carry over between parts. Substitutions count along the parent as printed.

Sample 1 — technique: protein binding microarray; form: double-stranded DNA, one strand shown; medium: in vitro; tested at: not given; relative to: not given; reading: higher = stronger binding
Target: Histone acetyltransferase KAT6A, both winged helices, GST fusion (KAT6A, Homo sapiens, UniProt Q92794, residues 1-181)
Notes: 8-mer, flanks averaged, mean of 2 arrays, mostly near background
Residues (chain): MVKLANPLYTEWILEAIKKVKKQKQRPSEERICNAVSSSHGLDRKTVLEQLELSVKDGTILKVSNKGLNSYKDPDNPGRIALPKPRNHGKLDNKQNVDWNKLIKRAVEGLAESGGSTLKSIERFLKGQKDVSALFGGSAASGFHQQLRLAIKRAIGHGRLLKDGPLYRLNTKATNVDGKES
| Sequence | E-score |
| --- | --- |
| ACTTCGAT | 0.0258 |
| GCGTGGGA | 0.0956 |
| GCAAACAC | 0.0273 |
| AACGGAGC | 0.174 |
| CTATAAGA | -0.192 |
| AACATGGC | -0.0501 |
| CGCCCTAG | 0.0173 |
| AACTCGAA | -0.102 |
| TCATGAGA | -0.0473 |
| CCAGTCCA | -0.196 |
| AGGCCACC | -0.16 |
| TAACATAA | -0.0212 |
| CGCACATC | 0.246 |
| CTCTTAAC | -0.0987 |
| ACGAATAT | -0.0997 |
| ATTATTAC | 0.0377 |
| CAAGACAG | -0.269 |
| TCCCAAAA | -0.0798 |
| CACCTCAC | 0.0244 |
| ATATAGTC | -0.0631 |
| ACATGTTC | -0.00059 |
| ACTCGCCC | -0.053 |
| CACAAAAG | -0.0917 |
| CGCATGCA | 0.186 |
| CGCACCCC | 0.0972 |

Sample 2 — technique: protein-binding microarray; form: hairpin DNA; medium: in vitro; tested at: not given; relative to: not given; reading: higher = stronger binding; shared flanks, not repeated: GCAGGCCC … GGGCCTGCACACTCTTTCCCTACACGAC
Target: Transcription factor SOX-2, HMG box (SOX2, Homo sapiens, UniProt P48431, residues 37-118)
UniProt P48431, sequence (37-118, looked up): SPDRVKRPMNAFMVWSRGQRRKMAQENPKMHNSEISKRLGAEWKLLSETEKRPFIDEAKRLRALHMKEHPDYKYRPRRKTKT
Notes: whole hairpin DNA, median over replicate spots
| Sequence | median fluorescence |
| --- | --- |
| ACAATGGGCCTCCTGGCCCATTGT | 3080 a.u. |
| ACCATGGGCCTCCTGGCCCATGGT (5mC at 11) | 2440 a.u. |
| ACAGTGGGCCTCCTGGCCCACTGT (5mC at 29) | 2390 a.u. |
| ACAATTGGCCTCCTGGCCAATTGT | 4440 a.u. |
| CAAATGGGCCTCCTGGCCCATTTG (5mC at 9) | 2380 a.u. |
| ACTATGGGCCTCCTGGCCCATAGT | 2510 a.u. |
| ACCTTGGGCCTCCTGGCCCAAGGT (5mC at 11) | 2350 a.u. |
| GCAATGGGCCTCCTGGCCCATTGC (5mC at 8 32) | 2470 a.u. |
| AGAATGGGCCTCCTGGCCCATTCT (5mC at 31) | 2540 a.u. |
| ACAATGGGCCTCCTGGCCCATTGT (5mC at 27) | 3250 a.u. |
| ACAATCCGCCTCCTGGCGGATTGT | 2640 a.u. |

Sample 3 — technique: RNA Bind-n-Seq; form: RNA; medium: in vitro; tested at: 365 nM; relative to: no-protein control; reading: higher = stronger binding
Target: RNA binding protein fox-1 homolog 2, RRM domain, GST-SBP tag (RBFOX2, Homo sapiens, UniProt O43251-10, residues 100-194)
Notes: natural RNA segment, single round, ends assumed
Shared flanks, not repeated: GGGAGUUCUACAGUCCGACGAUC … UGGAAUUCUCGGGUGCCAA
Residues (chain): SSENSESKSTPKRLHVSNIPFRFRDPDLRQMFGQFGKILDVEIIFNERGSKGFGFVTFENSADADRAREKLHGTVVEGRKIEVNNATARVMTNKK
| Sequence | RBNS enrichment (R) |
| --- | --- |
| UCACACUCCCUCUGACGGACGGACGGACGUCAGUGCCCUCUCCCUUCUCCUUGUGAAGCCAUAAGCCUGACUUCCCCUCAGCCCUGCUCCCUCAUUUUCUCUCAUCAUGU | 0.517 |
| CCUGGGUAGGAAAAUUAGAAGCAAGCUGGAUGCAGUGGCUCAUGCCUGUAAUCCCAACACUUUUGGGAGGUCCAGGCAGGAGGAUCACUUGGGCCCAGGAGGUCAAGCCU | 1.37 |
| AUUAUUAGAUCCACACAGAAGGAGCUCAGUAUUUAGUCCUUUGUUUUUAUUCAGUGAGAACCAAGCUAGCCUUGAGUAAUUUUUAUCUUGUCUUCCUAAAACACUAUUAA | 0.858 |
| CAUAUUUAUGCAAAUUAAAUGCCCUUAAAAUUUUGCCAUUUGUCUUUCAUUUUAAAGGUUAUUUGCCCUCAAUUAUAUAAUUUCAGUGUUAUAAAGUUUAGCUUAAACUC | 0.823 |
| CCAUCGCAGAUGAGUGACAAGAGAGAAGGCUGUCAACACUUCGGUACAUGGUGAUCUUAAAAACACCCACCUGCACCAUCACACCAGACUGUACCACUAGGGCAUCCAGA | 0.256 |
| AGCCCUUUAAGGAAAAGAUCAGUGUCCUGCACCCCUGGGGCAAAUGACAAGGGUAUUAUCAUGGAGUUCUGCCUAUUCCUACUGGUGUCCACCAGUCACACAUUUGGAAU | 0.345 |
| GGAAACCUGGCUUUGCUCUGGACAAAGGGUUCCAGAGAGAAGCUAGAAGUCCCCCUUGAAUGACCCCCAGAGCCCCUCUGAGAAGGGCUGGAGUUUGGGGGAAGGGGAUG | 1.44 |
| UACUGCUGGCAACAUUCCUGCUCCACCUCCUGGAUGCCCUCCCAAUGCUGCUCAGCUUGCAGUCAUGCAGGGAGCCAACGUCCUCGUAACUCAGCGGAAGGGGAACUUCU | 0.295 |
| UGCUUGUCCCCAAAUCACCUAACCCUCAUCCAGGGCUAUUUUGGUGGGCAGGGACUGCCUCCUCCCGGAAUUCCUAAGAUCCGCCCAGCUGCCACCAUUUUCAUUGCUUU | 0.918 |
| CAGGAGGCCUCCUGACACCAGCCAAAAUCCUGACAGCAGGGUCUGCCCUCUUGAGUGUGGGGAGCCCCUAGUCCUUUAAGGUUGGCUGCUAAGGCCUGUGCUCCAAAGCA | 1.07 |
| GUGGCAUGGAGCUUGUGUCCUUGGACAACAAAUCUGGAUAUACUAGGAUUAAUUAUCAGAAGACAGCUCAGGCCAAGUUUUGAUCGUUCCAUACAGUACCUUGUUUAUCU | 0.534 |
| UUGUGCACAUAUUUCUGCUACCACCAAGACUGUAUUAUACAGAUAAAUAAACAACUUGAAACCUGUUCUCAGACUGUUACCCUUCAUAUGUCAGUGCCCUGCUCUCUCCA | 0.653 |

Sample 4 — technique: RNA Bind-n-Seq; form: RNA; medium: in vitro; tested at: 100 nM; relative to: input RNA pool; reading: higher = stronger binding
Target: RING finger protein unkempt homolog, zinc fingers 1-6, SBP tag (UNK, Homo sapiens, UniProt Q9C0B0, residues 30-357)
UniProt Q9C0B0, sequence (30-357, looked up): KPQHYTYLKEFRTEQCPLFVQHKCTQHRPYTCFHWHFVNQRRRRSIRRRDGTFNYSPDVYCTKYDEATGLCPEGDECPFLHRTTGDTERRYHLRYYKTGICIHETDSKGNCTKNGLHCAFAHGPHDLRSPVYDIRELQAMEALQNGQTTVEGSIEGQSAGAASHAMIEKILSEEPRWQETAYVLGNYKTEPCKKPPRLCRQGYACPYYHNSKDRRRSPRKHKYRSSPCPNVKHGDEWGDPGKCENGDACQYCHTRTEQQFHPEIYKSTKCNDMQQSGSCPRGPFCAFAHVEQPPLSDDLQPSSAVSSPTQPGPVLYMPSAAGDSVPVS
Notes: RNA with constant flanks, vertebrate orthologous sites, ends assumed
Shared flanks, not repeated: GGGAGUUCUACAGUCCGACGAUC … CAACAGAGGAUUGAGCAUCA
| Sequence | bound/input enrichment [ratio] |
| --- | --- |
| CAUCUCUCAUUUAAAGAUUCCAAAAUAACUUUGAAUUUUUCAAGAGUUGCUAGUUUUACUUAGCUCUACCCUCAGGAGGUGUUAAGAGUUCACCACCAGCAGAUCGCUGUCUGCUUUAUG | 0.461 |
| AUUCAAACCUGUGGUACCUUGGCCCCACGUGGAAGGGGUAGAAGUGGACUUGGAGUCUAUUAGAAGAAAAAACAAAGCCAAAAAUGACCAAGAGCAUCAGGCUGGAGGUGUCAAUCAGCA | 0.412 |
| GUGUUUGUUUUGCACAUGGCAGUGUUUAUAUUGAGGAUCUUCUGAGGAGGAAGGGGUGCCUAGCAGUGGUGCCUGGGCUCCUGGCCUCUAGCGCCCCACCCGCCUCAGCACCCUGCCUGG | 0.433 |
| CAGUUUGUAUGUACAUUAUUCAUAUUCCUCUCUGUUGUGUUUCGGGGGGAAAAGACAUUUUAGCCUUUUUUAAAAGUUACUGAUUUAAUUUCAUGUUAUUUGCUUGCAUGAAGUUGCCCU | 1.36 |
| GAGGAUUAGGUUCGAUCCUUUACGUGUUAAAAAAGAAAGCGUAAAAACAUUUUAAAAACAUAGAAAAAUUCAGCAAACCAUUUUUAAAGUAGAAGAGGGUUUUAGGUAGAAAAACGUAUU | 1.28 |
| UUUUUAAAAGUUUUUUUAAUUUAAUUUUUCCUUUUGGGGGUACAAGUUUGCUCUACCAAAUAGUGAUCGUAACAAAUUGAUCUGUUUUGGAUGUUGCUAUAGUGACAUGCAGUUAUAUAU | 0.696 |
| GGGCAGCCAGUGGGGGAAUCCCCUACCUUGGCCAUGCGUCCCCUCCCUGCCACCUGCCCUUAGUUAUUUUUUUUUAACCACCACAUGAUUAUGGUCGGCGCUGCCUCCCCCGACCCACUC | 2.6 |
| AUUGAACAAAAAUGUUUCCACUGGCUUUUGCCUGUAAGAAAAAAAAUGUACCCGAGCACAUAGAGCUUUUUAAUAGCACUAACCAAUGCCUUUUUAGAUGUAUUUUUGAUGUAUAUAUCU | 0.607 |
| CAGCUGAUUCACUGAUUGGGAGAGCUGCACAUAUAGCUGUUCUUGAUUCAGAAAUAUUUUUAGAAAAAUUCUUUCUGGUUGCUGCCCUCAAAUAUUUCCAGUAGGAUAAAAGCAUUCUUA | 0.649 |
| AAAAUGGUUUCUAUAUCGUGUCCCACCCUUGUGAGAGGGAGGGGAAAGCAGGUGACCAUAUGUUCCAAUUAGUUUUCUUUUUUCUAAGAAUAACUGUAUUUAUUAUGACGAUGGUGACUC | 0.241 |
| GCCAUGAAAAAGCAGCCCUUCUCCCAGCCCCCCUUUCGCUAGGAGAUACAAACGUUACCAUAGAAGAGCAAUUAAACUCAAUAAAUUUAUCUUUUCAGGAUGAUCCAGACUCCAGUACCA | 0.975 |

Sample 5 — technique: universal PBM; form: double-stranded DNA, one strand shown; medium: in vitro; tested at: 600 nM; reading: higher = stronger binding
Target: Sal-like protein 4, full length isoform A (SALL4, Homo sapiens, UniProt Q9UJQ4, residues 1-1053)
UniProt Q9UJQ4, sequence (whole entry, looked up): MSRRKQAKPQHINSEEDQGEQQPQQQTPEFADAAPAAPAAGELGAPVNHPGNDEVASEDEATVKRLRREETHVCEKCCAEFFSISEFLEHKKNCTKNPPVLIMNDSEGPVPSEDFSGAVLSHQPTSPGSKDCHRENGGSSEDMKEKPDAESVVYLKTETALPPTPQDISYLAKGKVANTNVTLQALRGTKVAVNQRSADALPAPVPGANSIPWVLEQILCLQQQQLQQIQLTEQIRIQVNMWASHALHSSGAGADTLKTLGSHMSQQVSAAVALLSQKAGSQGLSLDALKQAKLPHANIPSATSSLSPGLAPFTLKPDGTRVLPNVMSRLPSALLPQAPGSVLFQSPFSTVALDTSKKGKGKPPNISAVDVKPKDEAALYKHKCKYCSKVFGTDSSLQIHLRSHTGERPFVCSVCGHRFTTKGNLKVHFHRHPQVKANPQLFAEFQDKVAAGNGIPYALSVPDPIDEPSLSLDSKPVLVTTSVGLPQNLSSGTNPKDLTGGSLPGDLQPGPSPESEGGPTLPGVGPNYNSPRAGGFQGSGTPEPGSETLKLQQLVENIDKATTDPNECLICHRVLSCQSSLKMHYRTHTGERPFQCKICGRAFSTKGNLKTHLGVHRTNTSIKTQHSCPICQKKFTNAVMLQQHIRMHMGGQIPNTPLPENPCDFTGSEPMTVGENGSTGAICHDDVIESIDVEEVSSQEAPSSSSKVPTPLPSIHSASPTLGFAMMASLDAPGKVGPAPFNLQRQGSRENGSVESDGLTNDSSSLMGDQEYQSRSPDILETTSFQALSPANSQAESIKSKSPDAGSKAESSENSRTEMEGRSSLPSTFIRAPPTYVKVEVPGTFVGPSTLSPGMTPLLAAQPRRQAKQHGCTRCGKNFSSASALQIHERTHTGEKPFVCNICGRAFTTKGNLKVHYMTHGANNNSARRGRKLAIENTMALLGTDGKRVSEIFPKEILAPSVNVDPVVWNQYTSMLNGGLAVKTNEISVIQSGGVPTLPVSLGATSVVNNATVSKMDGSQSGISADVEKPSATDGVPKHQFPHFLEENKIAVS
Notes: 8-mer, flanks averaged, mean of replicates
| Sequence | E-score |
| --- | --- |
| GTGTCATA | 0.282 |
| CGGCTTCA | 0.0311 |
| ACGGCTGA | -0.128 |
| ATTGGTAC | -0.0566 |
| ACGGAAGT | -0.0391 |
| CGCCGAGA | -0.291 |
| AGCAGGCC | -0.292 |
| AATGCTCT | 0.0794 |
| ACCGCTCA | -0.0709 |
| GAAGCCCC | -0.256 |
| CGAGAACA | -0.0995 |
| CCGAGTTA | -0.0029 |
| ATTGGGCC | -0.11 |
| GATGACTA | 0.0561 |

Sample 6 — target: CCNA1, cyclin fold, Cln2 fusion (human); technique: yeast growth competition, sequencing; medium: yeast; notes: weak parent motif; relative to: not given; reading: higher = stronger binding
Starting sequence: BRCA2 docking peptide (human); PSIKRNLLNEFDR; partner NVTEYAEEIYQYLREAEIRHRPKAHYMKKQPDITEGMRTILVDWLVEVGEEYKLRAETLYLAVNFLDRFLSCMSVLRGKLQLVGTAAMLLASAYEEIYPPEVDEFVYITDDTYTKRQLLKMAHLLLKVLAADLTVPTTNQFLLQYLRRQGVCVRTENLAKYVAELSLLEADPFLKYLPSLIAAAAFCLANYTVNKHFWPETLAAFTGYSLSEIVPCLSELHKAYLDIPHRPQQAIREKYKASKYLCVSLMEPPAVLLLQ
| Variant | normalised enrichment score |
| --- | --- |
| L8A | 0.445 |
| R5K | 0.383 |
| L8T | 0.421 |
| R13M | 0.477 |
| I3G | 0.527 |
| F11W | 0.655 |
| P1Q | 0.663 |
| I3K | 0.579 |
| L7T | 0.416 |
| R5A | 0.522 |
| K4D | 0.235 |
| R13N | 0.617 |
| K4L | 0.104 |
| R5K F11L | -0.291 |
| N9H | 0.46 |

Excerpt of the above (sample 4):
| Sequence | bound/input enrichment [ratio] |
| --- | --- |
| GAGGAUUAGGUUCGAUCCUUUACGUGUUAAAAAAGAAAGCGUAAAAACAUUUUAAAAACAUAGAAAAAUUCAGCAAACCAUUUUUAAAGUAGAAGAGGGUUUUAGGUAGAAAAACGUAUU | 1.28 |
| UUUUUAAAAGUUUUUUUAAUUUAAUUUUUCCUUUUGGGGGUACAAGUUUGCUCUACCAAAUAGUGAUCGUAACAAAUUGAUCUGUUUUGGAUGUUGCUAUAGUGACAUGCAGUUAUAUAU | 0.696 |
| GGGCAGCCAGUGGGGGAAUCCCCUACCUUGGCCAUGCGUCCCCUCCCUGCCACCUGCCCUUAGUUAUUUUUUUUUAACCACCACAUGAUUAUGGUCGGCGCUGCCUCCCCCGACCCACUC | 2.6 |
| AUUGAACAAAAAUGUUUCCACUGGCUUUUGCCUGUAAGAAAAAAAAUGUACCCGAGCACAUAGAGCUUUUUAAUAGCACUAACCAAUGCCUUUUUAGAUGUAUUUUUGAUGUAUAUAUCU | 0.607 |
| CAGCUGAUUCACUGAUUGGGAGAGCUGCACAUAUAGCUGUUCUUGAUUCAGAAAUAUUUUUAGAAAAAUUCUUUCUGGUUGCUGCCCUCAAAUAUUUCCAGUAGGAUAAAAGCAUUCUUA | 0.649 |
| AAAAUGGUUUCUAUAUCGUGUCCCACCCUUGUGAGAGGGAGGGGAAAGCAGGUGACCAUAUGUUCCAAUUAGUUUUCUUUUUUCUAAGAAUAACUGUAUUUAUUAUGACGAUGGUGACUC | 0.241 |
| GCCAUGAAAAAGCAGCCCUUCUCCCAGCCCCCCUUUCGCUAGGAGAUACAAACGUUACCAUAGAAGAGCAAUUAAACUCAAUAAAUUUAUCUUUUCAGGAUGAUCCAGACUCCAGUACCA | 0.975 |
